Measurements from different studies.
Each numbered part is a random draw from the data of one study; scales do not carry over between parts.

Block 1
Target: RING finger protein unkempt homolog, zinc fingers 1-6, GST-SBP tag (UNK, Homo sapiens, UniProt Q9C0B0, residues 30-357)
UniProt Q9C0B0, sequence (30-357, looked up): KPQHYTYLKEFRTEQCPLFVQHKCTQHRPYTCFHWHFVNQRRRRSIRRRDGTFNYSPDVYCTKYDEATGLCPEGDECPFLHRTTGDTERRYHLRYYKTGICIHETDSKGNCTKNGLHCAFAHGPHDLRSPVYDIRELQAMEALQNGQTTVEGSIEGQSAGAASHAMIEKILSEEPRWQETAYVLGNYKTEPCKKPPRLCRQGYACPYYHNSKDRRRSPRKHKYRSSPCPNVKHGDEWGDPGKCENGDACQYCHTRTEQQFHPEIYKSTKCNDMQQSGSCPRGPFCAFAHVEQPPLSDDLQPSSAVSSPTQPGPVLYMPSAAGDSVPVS
Technique: RNA Bind-n-Seq
Form: RNA
Sample: in vitro
Concentration: not given
Notes: RNA with constant flanks, human and mouse sites, ends assumed
Reference: input RNA pool
Reading: higher = stronger binding
Shared flanks, not repeated: GGGAGUUCUACAGUCCGACGAUC … CAACAGAGGAUUGAGCAUCA
| Sequence | bound/input enrichment |
| --- | --- |
| CUGCUGCAGGGUUGGUACAUUGUGACCUAUGCCUUGGGGAUCUACCAUCUAAAUCUUUUCAUAGCUUUUCUUUCUCCCAAAGUGGAUCCUUCCUUAAUGGAAGACUCAGAUGACGGUCCU | 0.683 ratio |
| GAUGUAGAAAAAUUUUGUAACAGUGUAGUCGAUCUGUAUUCAAAUCUUAGUAAGCCAUUUUUAGACAUAGUUUUGUAUAUCUUUAAGUUAACGAGUGCAAUUGGAGCUCAGGGCCCAGCG | 49.1 ratio |
| AAGGGCUACUAGAGUGGUUCAGCAGAUAAGGUGCUGCUACCAAACCAGAUGACCUGAGUUCAGUCCCCAAAUUGCAUGUGGUAGGAGAGAAUUAACUCCUAAAAAUUGUCCUCUGGGGCU | 0.25 ratio |
| CGAUAUCUGCCUUGGCUCUACCAUCCUCCCUCUGCAAUGCAGCAAGGACCUAAAGAAUUCAUCGAGUGUGUCUCCCACAUCCGGUUGCUGUCCUGGCUGCUUCUGGGAUCCCUCACGCAU | 0.3 ratio |
| AACUCAAACCCAGCCCUCAAUGACAACCUAGAGAAGGGACUCCUGAAAGCCCUGAAGGUUCUAGACAAUUACCUGACAUCCCCCCUCCCAGAAGAAGUGGAUGAAACCAGCGCCGAAGAU | 0.747 ratio |
| AGAUACAGGCAAAGUUGAAUCUUCUGUCUUCCUGGCAAAAAUGGCAUAAAAACUGAGUUGCUAGCUCAAAUUCCUGGGUUUCAUGGAAUUAUGAUUGAGGCACUACCCUUGUAGUGGCCG | 0.222 ratio |
| GCUGGUCUUUUGGAAAAAAAAUGGACAUCUGUUAUUAGAUUACAAAAGAAGGUUAUGGAAUUAGAAUCAAAGCUAAAUGAAGCAAAAGAAGAAUUUACGUCAGGUGGACCUCUUGGUCAG | 1.45 ratio |
| GAAUCUUCACCAACCACAUUACUCACUACAAAGAAAAAUAUUGGACGUUUCCAUCCCUAUACCAGAUAUGAAAAUAUAACUUUCAAUUGCUGCAAUCACUGCCAGGGGGAGCUCAUUGCU | 0.753 ratio |
| AAAGCAAUAAAUGUAGAUCUUCAAAGUGAUGCUGCUCUGCAGGUGGACAUUUCUGAUGCUCUUAGUGAGCGGGAUAAAGUAAAAUUCACUGUUCACACAAAGAGUUCAUUGCCAAAUUUU | 0.216 ratio |
| GUACUGCAACAGCAGGGCAAGCUGCAGGAAGCACUGAUGCACUAUAAAGAAGCCAUACGAAUUAGUCCUACAUUUGCUGAUGCUUAUUCCAAUAUGGGAAACACUCUAAAGGAGAUGCAG | 0.804 ratio |
| GUGUUUCAGAUUUUAAAGUGAUCACGAUUUGGUAGAUUACAGAUAUUUUUUUGUUGUUGUUUUAGUUUUUUCUUUUUCUUUUUUUAAGUAAACAGUCAAGUCAGGUCAAGCAAGACGUUA | 8.17 ratio |

Block 2
Target: Prothrombin, mature alpha-thrombin (F2, Homo sapiens, UniProt P00734)
Technique: aptamer microarray, sandwich
Form: DNA with 2'F-ANA
Sample: in vitro
Concentration: 200 nM
Notes: whole 15-mer aptamer, many near background
With: Cy3 exosite-II aptamer, 400 nM
Reading: higher = stronger binding
Sequence: GGTTGGTGTGGTTGG
| Modification | mean fluorescence intensity |
| --- | --- |
| 2'F-ANA at 1 4 5 7 9 10 11 13 | 52.6 a.u. |
| 2'F-ANA at 1 2 3 4 5 6 7 8 9 12 13 | 102 a.u. |
| 2'F-ANA at 3 6 7 9 11 14 | 454 a.u. |
| 2'F-ANA at 1 2 5 6 7 9 10 11 13 14 15 | 65.2 a.u. |
| 2'F-ANA at 4 8 14 | 109 a.u. |
| 2'F-ANA at 3 4 6 8 11 15 | 526 a.u. |
| 2'F-ANA at 1 2 3 5 7 8 10 11 12 13 14 | 56.7 a.u. |
| 2'F-ANA at 1 2 5 6 7 13 14 15 | 49.1 a.u. |
| 2'F-ANA at 1 2 5 6 7 8 9 10 12 13 | 53.5 a.u. |
| 2'F-ANA at 1 4 5 6 7 8 9 10 13 15 | 49.2 a.u. |
| 2'F-ANA at 1 2 3 5 6 10 11 14 | 62.6 a.u. |
| 2'F-ANA at 1 3 4 6 7 8 15 | 244 a.u. |
| 2'F-ANA at 5 8 12 13 14 15 | 48.3 a.u. |
| 2'F-ANA at 1 2 4 10 11 13 15 | 49.3 a.u. |
| 2'F-ANA at 2 6 7 10 11 13 15 | 99.1 a.u. |
| 2'F-ANA at 1 2 5 9 12 13 14 15 | 49.2 a.u. |
| 2'F-ANA at 2 5 11 12 15 | 168 a.u. |
| 2'F-ANA at 1 2 3 6 7 10 12 13 14 | 54.7 a.u. |

Block 3
Target: RNA binding protein fox-1 homolog 2, RRM domain, GST-SBP tag (RBFOX2, Homo sapiens, UniProt O43251-10, residues 100-194)
Technique: RNA Bind-n-Seq
Form: RNA
Sample: in vitro
Concentration: 365 nM
Notes: natural RNA segment, single round, ends assumed
Reference: no-protein control
Reading: higher = stronger binding
Shared flanks, not repeated: GGGAGUUCUACAGUCCGACGAUC … UGGAAUUCUCGGGUGCCAA
Residues (chain): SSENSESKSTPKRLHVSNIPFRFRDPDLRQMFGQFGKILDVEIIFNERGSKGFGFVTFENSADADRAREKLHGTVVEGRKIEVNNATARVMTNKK
| Sequence | RBNS enrichment (R) |
| --- | --- |
| GGACAGAGCUGGGUGCCACAGUUUUCCACCAAGAGCAGCCUCUUUUCUUCAUGGAGUUCUCAGAACCUUUCAGGGUUCAGGAGGCUCCCCUGAGAAUAGACAGGAGAGGG | 0.332 |
| AAAAUGUAAAACACAUACAAAAGAAUUAAACCCACAAGCUGCCUCUGACAGCAGCCUGUGAGGGAGUGCAGAACACCUGGCCGGGUCACCCUGUGACCCUCUCACUUUGG | 0.261 |
| GAUUCCCAAACCUUGUUGCAAGUUUUUGCAUUGGCAUCUUUGGAUUUCAGUCUUGAUGUUUGUUCUAUCAGACUUAACCUUUUAUUUCCUGUCCUUCCUUGAAAUUGCUG | 0.51 |
| ACACCAGAAAAAAGAGCCUGAGAGUGGUCGCUUCCAUCUUCCACUCCCCUUGUUCUUGGGGGGAAAGGAAGGAGACUUCUGCUGUUGCAGUGAGCCCAGAGUGGAUUGGC | 0.245 |
| GUGAUCUGCACUGGCCACUUGGCAGGCACAAGCUGCUUCCUUCCCCUCAGGUCUUAACCCUUCCCAGACCUGCAGCGAUUCCUGUCGACUCCCUUACACAGUAUUGAUCU | 1.88 |
| CAGAGCCGGUGGCAGAAGCAGUGGCCUGGCCCGGCUCUGGAGCCCAGCUUGUCUGGGCCCUGCCCAAGUUCCGCCAGGGAACCCAGCCCCAGCUCAAGUGCCGCCCCCUC | 0.347 |
| GAACCAUUGGGACCUGAGGCAGGAGUGUCACCUGCGGGAGAAGUCUGCCCGCUGCCCUCUGUCAUCCCAUUCAAGAUUGUGCCAUACCAGCUGAGGUUUUUCCUCUGUCU | 0.254 |
| ACUUUUGAGCGCUGUGUUCCCCCUUCUGAGUAGUCCUUUGACGACGUGUUGUGUUUUCUGAUGUUGACUUGAGUUCCAUUUAGUAGCAUCUCUUCCUUCCAUGUCUUGAU | 0.312 |
| CAGGCAUCCCAUGGGACCCAUCACUGCCAGUGUCUGUGCCUCCCAGAGGUCAGCCGUGUCUGCCCUGGCUCUGUCUCCUCUGUGACAGGGCAGAGCAUUUCUGGUCAGUU | 0.213 |
| UAGGUCCAGGGCCAUGAAGACUUGGAGAGCGCAGUGGCUGGGCAAGGGGCUGCUUUGGAGGGAAGAAGCAUGUGGUCUGAGUGCUGACUAGAUGAAUAGUUGAGGCACAU | 4.21 |
| CCGCUCACAGGCCCUCAGCUGUCGGUGGUUCCUGCAGCUUUUGUUCCUCGCAUGUAAUCAGGGAGCACGCAUGCACGUUGAGUGGGUGCAUCCUGCCUAAGCUGUGUCCC | 21 |
| GCGGGAGGGAGGUGUUGCCGUCACUGUACUAAGUCGAUGUUGGGAAAUGUUUUAACAUCUGGAGCCUUUGUGGGUGGAAAUCUGUCUCCAAUUACAACUCUGCACUGGAU | 0.956 |

Block 4
Target: Histone acetyltransferase KAT6A, winged helix 2, GST fusion (KAT6A, Homo sapiens, UniProt Q92794, residues 85-181)
Technique: protein binding microarray
Form: double-stranded DNA, one strand shown
Sample: in vitro
Concentration: not given
Notes: 8-mer, flanks averaged, mean of 2 arrays, mostly near background
Reference: not given
Reading: higher = stronger binding
Target sequence (chain): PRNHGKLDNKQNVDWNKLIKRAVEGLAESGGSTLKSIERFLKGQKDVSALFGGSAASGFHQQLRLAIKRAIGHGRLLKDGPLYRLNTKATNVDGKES
| Sequence | E-score |
| --- | --- |
| CGTAATAA | -0.268 |
| CAGAAACA | -0.0221 |
| CCTGACCG | 0.000165 |
| ACCCGTTC | -0.0347 |
| ATGCGGAC | -0.0475 |
| CTATTGTA | 0.0303 |
| ATACGAAC | 0.15 |
| CCTTTTTA | -0.0089 |
| AGCAAGAA | 0.0363 |
| CACGGGGC | 0.0461 |
| ATGTCGAA | 0.0313 |
| CGCGAGCA | 0.078 |
| TCTTGAAA | 0.113 |
| TGAGAGAA | -0.0222 |
| ATACGAGC | 0.0501 |
| CAGTATCG | -0.0885 |
| CGAGTATC | -0.0766 |
| ATAGGGGA | -0.157 |
| CACCCCCC | -0.093 |
| AATGGCGC | -0.084 |
| CATGCATG | 0.0239 |

Block 5
Target: Interferon regulatory factor 3, full length, phosphomimetic (IRF3, Homo sapiens, UniProt Q14653, residues 1-427, S386D/S396D/S398D/S402D/T404D/S405D)
Technique: protein-binding microarray
Form: double-stranded DNA, one strand shown
Sample: in vitro
Concentration: 2540 nM top
Notes: 60-bp whole probe
With: salmon DNA 0.4 mg/ml
Reference: random background probes
Reading: higher = stronger binding
Shared flanks, not repeated: GCCTAGCAC … GTCTTGATTCGCTTGACGCTGCTG
Target sequence (chain): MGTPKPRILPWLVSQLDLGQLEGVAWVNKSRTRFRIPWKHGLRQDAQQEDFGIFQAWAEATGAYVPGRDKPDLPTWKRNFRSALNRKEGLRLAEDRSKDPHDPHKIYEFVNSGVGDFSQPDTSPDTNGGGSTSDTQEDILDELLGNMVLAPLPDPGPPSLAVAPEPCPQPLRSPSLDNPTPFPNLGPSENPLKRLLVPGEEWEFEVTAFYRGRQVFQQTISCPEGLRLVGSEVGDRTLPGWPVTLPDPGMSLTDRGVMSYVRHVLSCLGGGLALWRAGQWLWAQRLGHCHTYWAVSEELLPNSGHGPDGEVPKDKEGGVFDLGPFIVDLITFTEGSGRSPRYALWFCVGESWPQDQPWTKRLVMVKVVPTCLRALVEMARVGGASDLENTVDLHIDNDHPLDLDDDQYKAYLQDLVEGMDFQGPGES
| Sequence | fitted relative affinity [z-score] |
| --- | --- |
| TCAGGTCTGGATGTGCCACTGTGCTAG | -0.129 |
| TCAGGTTCCGGTTTCGGTTAGTGCTAG | 7.8 |
| GACGGACTGGACACTGGGGTCGTGCTA | -0.606 |
| TTGGATTTCGGGTATCGATTAGTGCTA | 0.961 |
| GGCCCAGGAGGAGGCCCCTCGTGCTAG | -1.51 |
| GACGATTGCAGTATCGAGACGTGCTAG | 0.825 |
| TTAGAACTGAGTCTCGAGTAGTGCTAG | -0.692 |
| TTAGGTATCGACAGTGGGTTAGTGCTA | -0.423 |
| GACGATTCCAATTTCGAGACGTGCTAG | 2.19 |
| GTAGGTATCGGTCTCGGTTAGTGCTAG | 4.62 |
| GACGGTTTCGACACTGGGAACGTGCTA | 3.15 |
| TCAGAATTTACTTTCTACGTGTGCTAG | 1.35 |
| TTTTTGGATGCTGGAAAAATGTGCTAG | 0.791 |
| GATGGTCTCGGTTTCGGGACGTGCTAG | 3.87 |
| GACGGACTGCTTCTCCTGACGTGCTAG | -0.202 |
| TTAGAACTGAGACTGGATTTGTGCTAG | -0.521 |
| GACGGTTTCCTACTGCTGCCGTGCTAG | 5.11 |
| GACAACTGATATCAAAGGGAGTGCTAG | 0.113 |
| TTAGATTCCAGTTTCGATTCGTGCTAG | 6.39 |
| GACGGTTCCGGTTTCGCGACGTGCTAG | 5.26 |

For quick reference, copied from above (block 2):
| Modification | mean fluorescence intensity |
| --- | --- |
| 2'F-ANA at 1 4 5 6 7 8 9 10 13 15 | 49.2 a.u. |
| 2'F-ANA at 1 2 3 5 6 10 11 14 | 62.6 a.u. |
| 2'F-ANA at 1 3 4 6 7 8 15 | 244 a.u. |
| 2'F-ANA at 5 8 12 13 14 15 | 48.3 a.u. |
| 2'F-ANA at 1 2 4 10 11 13 15 | 49.3 a.u. |
| 2'F-ANA at 2 6 7 10 11 13 15 | 99.1 a.u. |
| 2'F-ANA at 1 2 5 9 12 13 14 15 | 49.2 a.u. |
| 2'F-ANA at 2 5 11 12 15 | 168 a.u. |
| 2'F-ANA at 1 2 3 6 7 10 12 13 14 | 54.7 a.u. |
